Published values gathered from unrelated publications.
Each numbered part is a random draw from the data of one study; scales do not carry over between parts. Changes are numbered by the printed parent chain.

Set 1 — method: universal PBM; molecule type: double-stranded DNA, one strand shown; sample: in vitro; concentration: 600 nM; direction: higher = stronger binding
Target: Sal-like protein 4, full length isoform A (SALL4, Homo sapiens, UniProt Q9UJQ4, residues 1-1053)
Chain of UniProt Q9UJQ4 (whole entry, looked up): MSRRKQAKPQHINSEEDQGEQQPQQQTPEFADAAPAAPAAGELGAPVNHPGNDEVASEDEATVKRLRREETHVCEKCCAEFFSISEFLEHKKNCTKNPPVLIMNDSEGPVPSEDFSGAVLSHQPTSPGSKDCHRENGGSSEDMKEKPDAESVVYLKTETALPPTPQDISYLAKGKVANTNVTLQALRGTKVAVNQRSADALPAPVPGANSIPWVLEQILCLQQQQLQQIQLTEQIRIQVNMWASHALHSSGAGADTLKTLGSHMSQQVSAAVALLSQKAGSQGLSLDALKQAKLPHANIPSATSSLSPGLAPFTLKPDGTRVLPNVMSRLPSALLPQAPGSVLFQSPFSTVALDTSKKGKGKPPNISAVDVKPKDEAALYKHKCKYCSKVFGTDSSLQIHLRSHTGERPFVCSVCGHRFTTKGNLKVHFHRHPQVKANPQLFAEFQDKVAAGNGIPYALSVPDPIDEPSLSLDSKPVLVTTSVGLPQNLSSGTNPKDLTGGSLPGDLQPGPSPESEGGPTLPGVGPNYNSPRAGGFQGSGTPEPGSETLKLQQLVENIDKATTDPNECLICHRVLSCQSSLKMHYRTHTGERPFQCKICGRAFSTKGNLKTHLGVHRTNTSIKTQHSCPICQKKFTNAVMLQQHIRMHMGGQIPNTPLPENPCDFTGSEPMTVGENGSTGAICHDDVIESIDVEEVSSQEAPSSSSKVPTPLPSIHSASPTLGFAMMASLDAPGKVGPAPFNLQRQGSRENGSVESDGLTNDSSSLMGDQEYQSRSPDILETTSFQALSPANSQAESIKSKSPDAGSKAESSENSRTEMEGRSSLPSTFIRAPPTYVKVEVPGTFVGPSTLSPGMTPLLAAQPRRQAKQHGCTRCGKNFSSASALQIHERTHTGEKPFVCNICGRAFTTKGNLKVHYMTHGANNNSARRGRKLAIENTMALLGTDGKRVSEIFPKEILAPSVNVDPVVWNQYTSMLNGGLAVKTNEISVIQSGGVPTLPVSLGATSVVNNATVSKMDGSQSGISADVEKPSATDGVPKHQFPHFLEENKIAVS
Notes: 8-mer, flanks averaged, mean of replicates
Sequence	E-score
CAGGTTGC	-0.0351
CGCCCAAC	-0.232
GTGTCCAA	-0.0389
CTGCCAGC	-0.178
ATCCCTTG	-0.0616
AAGCGTGG	-0.226
AACAGCGC	-0.222
AAAGCCAC	0.0124
AGAAGACT	-0.0287

Set 2 — method: competition protein-binding microarray; molecule type: double-stranded DNA, one strand shown; sample: in vitro; concentration: 2 µM; with: Cbf1 competitor, 0.05 µM; direction: higher = stronger binding; shared flanks, not repeated: … GTCTTGATTCGCTTGACGCTGCTG
Target: Phosphate system positive regulatory protein PHO4, full length, GST-tagged (PHO4, Saccharomyces cerevisiae, UniProt P07270, residues 1-312)
Notes: whole 60-bp probe, lowest competitor level
Residues (chain): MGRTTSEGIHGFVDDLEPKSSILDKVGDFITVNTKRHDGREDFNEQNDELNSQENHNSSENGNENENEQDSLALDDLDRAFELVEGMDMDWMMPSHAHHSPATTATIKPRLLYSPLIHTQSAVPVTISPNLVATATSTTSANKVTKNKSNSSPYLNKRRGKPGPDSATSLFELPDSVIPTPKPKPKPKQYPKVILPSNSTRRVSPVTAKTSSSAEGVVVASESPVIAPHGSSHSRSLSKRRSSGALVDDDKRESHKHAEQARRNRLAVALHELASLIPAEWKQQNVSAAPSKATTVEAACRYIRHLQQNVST
Sequence	fluorescence intensity [a.u.]
TTGAACATAGAAGACCGCGTGATGGATTTTAGTGCG	8900
AAAGCGGTAATTTGACGTGTGGGTGCAGATATCTAT	5560
TTATCTCAATGGGTTTACGTGGGTATAGATTACGCT	5430
CCGTAGAGGCTTTTGCCCGTGCTTTGAGACAACTGC	6950
AAATTACTAAGTTGCGGCGTGGGTGACGCCGTATGA	7750
CTAACGAAGGTTTGCATAGTGGGTGACAAGCCAAGT	4460
CACCGTCCTATTCGTCACGCTCCAGGCAGAGACATG	8140

Set 3 — target: CCNB3, cyclin fold, Cln2 fusion (human); method: yeast growth competition, sequencing; sample: yeast; notes: weak parent motif; relative to: not given; direction: higher = stronger binding
Parent: CDKN1A docking peptide (human); SKACRRLFGPVDS; partner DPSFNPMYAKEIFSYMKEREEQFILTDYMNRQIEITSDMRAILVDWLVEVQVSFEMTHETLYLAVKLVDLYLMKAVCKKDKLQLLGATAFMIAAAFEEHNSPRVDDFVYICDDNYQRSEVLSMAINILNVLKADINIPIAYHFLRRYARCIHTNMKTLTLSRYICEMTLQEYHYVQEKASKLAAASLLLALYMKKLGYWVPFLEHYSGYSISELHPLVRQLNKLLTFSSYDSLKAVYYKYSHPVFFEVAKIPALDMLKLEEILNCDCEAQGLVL
Substitution	normalised enrichment score
SKACDRLFGPVDS [R5D]	-0.238
SKACCRLFGPVDS [R5C]	0.342
SKACRRLFDPVDS [G9D]	0.257
SKACRRLFGPVSS [D12S]	0.453
SKAWRRLFGPVDS [C4W]	0.715
SKGCRRLFGPVDS [A3G]	0.157

Mixed results
Substance	target	test	system	conditions	how to read	quantity	value
PhoQ, residues 284 288 289 292 302 303 WSHMKI	PhoP, residues 12 14 15 18 19 STHWV (Escherichia coli, UniProt P23836)	Sort-seq, item: YFP reporter	E. coli	PhoQ-PhoP variant library, with: 10 µM Mg2+	relative to: high Mg2+ state, higher = stronger signaling	fold induction	0.587

For quick reference, copied from above (set 2):
Sequence	fluorescence intensity [a.u.]
AAATTACTAAGTTGCGGCGTGGGTGACGCCGTATGA	7750
CTAACGAAGGTTTGCATAGTGGGTGACAAGCCAAGT	4460
CACCGTCCTATTCGTCACGCTCCAGGCAGAGACATG	8140
